Measured values gathered from unrelated publications.
Organism: Staphylococcus aureus

COc1ccc(NC(=O)Nc2cccc(C(=O)N3CCC(C)CC3)c2)cc1
MIC (checkerboard, measured: ceftobiprole; CRB, PBP4 overexpressor; 25 µM): > 64 µg/mL

c1ccc(CCNC2CCCc3c2[nH]c2ccc(C4CCCCC4)cc32)cc1 (stereo not shown)
MIC (microbial growth, broth dilution; MRSA USA300): 4 µg/mL

CC(C)C[C@@H](NC(=O)[C@@H](CCCNC(=N)N)NC(=O)[C@H](N)CCCNC(=N)N)C(=O)N[C@H](CC(C)C)C(=O)N[C@H](CCCNC(=N)N)C(=O)N[C@H](CCCCN)C(=O)N[C@H](CC(C)C)C(=O)N[C@H](CCCCN)C(=O)NCC(=O)N[C@H](CCCCN)C(=O)N[C@H](CCCCN)C(=O)N[C@H](CC(C)C)C(=O)N[C@H](Cc1ccc(O)cc1)C(=O)N[C@H](CC(C)C)C(=O)N[C@H](Cc1ccc(O)cc1)C(=O)N[C@H](Cc1ccccc1)C(=O)N[C@H](CCCCN)C(=O)N[C@H](CC(C)C)C(=O)N[C@H](CCC(N)=O)C(=O)N[C@H](CC(C)C)C(=O)N[C@H](CC(C)C)C(=O)N[C@H](CCCCN)C(=O)N[C@H](CCCCN)C(N)=O
MIC (broth microdilution; KCTC 1621, Mueller-Hinton broth; no added salt): 8 µM

CC(C)[C@H](NC(=O)[C@H](Cc1ccc(O)cc1)NC(=O)[C@H](CS)NC(=O)[C@@H](NC(=O)[C@H](CCCNC(=N)N)NC(=O)[C@H](Cc1ccccc1)NC(=O)[C@H](CS)NC(=O)[C@H](Cc1c[nH]c2ccccc12)NC(=O)[C@@H](N)CCCNC(=N)N)C(C)C)C(=O)NCC(=O)N[C@@H](Cc1ccccc1)C(=O)N[C@@H](CS)C(=O)N[C@@H](Cc1ccc(O)cc1)C(=O)N[C@@H](Cc1c[nH]c2ccccc12)C(=O)N[C@@H](CCCCN)C(=O)N[C@@H](CS)C(=O)N[C@@H](CCCNC(=N)N)C(=O)O
MIC (broth microdilution; ATCC 25923): 0.94 log10 µg/mL

CC[C@H](C)[C@H](N)C(=O)N[C@@H](CCCNC(=N)N)C(=O)N[C@H](C(=O)N[C@@H](Cc1c[nH]c2ccccc12)C(=O)N[C@@H](CCCCN)C(=O)N[C@@H](CCCCN)C(=O)N[C@H](C(=O)N[C@H](C(=O)N[C@@H](CCCNC(=N)N)C(=O)N[C@@H](CCCCN)C(=O)N[C@@H](CCSC)C(=O)N[C@@H](CCCCN)C(=O)N[C@@H](C)C(=O)N[C@H](C(=O)N[C@@H](Cc1ccc(O)cc1)C(=O)N[C@@H](Cc1c[nH]cn1)C(N)=O)[C@@H](C)CC)C(C)C)[C@@H](C)CC)C(C)C
MIC (broth dilution; ATCC 25923, Mueller-Hinton broth; 24 h, 37 °C): 100 µM

CC[C@H](C)[C@H](NC(=O)[C@@H](CCCNC(=N)N)NC(=O)[C@H](CCCNC(=N)N)NC(=O)[C@@H]1CCCN1C(=O)[C@@H]1CCCN1C(=O)[C@H](CCCNC(=N)N)NC(=O)[C@@H]1CCCN1C(=O)[C@H](CCCNC(=N)N)NC(=O)[C@@H]1CCCN1C(=O)[C@H](CC(C)C)NC(=O)[C@H](Cc1cc(I)c(O)c(I)c1)NC(=O)[C@@H]1CCCN1C(=O)[C@@H]1CCCN1C(=O)[C@H](CCCCN)NC(=O)[C@H](CC(=O)O)NC(=O)[C@@H](N)C(C)C)C(=O)N[C@@H](Cc1ccc(O)cc1)C(=O)N[C@@H](CC(N)=O)C(=O)N[C@H](CCCNC(=N)N)C(N)=O
MIC (broth microdilution; DSM 6247; 18 h, 37 °C, 25% MHB2): 128 µg/mL

CN[C@H](CC(C)C)C(=O)N[C@H]1C(=O)N[C@@H](CC(N)=O)C(=O)N[C@H]2C(=O)N[C@H]3C(=O)N[C@H](C(=O)N[C@H](C(=O)O)c4cc(O)cc(O)c4-c4cc3ccc4O)[C@H](O)c3ccc(c(Cl)c3)Oc3cc2cc(c3O[C@@H]2O[C@H](CO)[C@@H](O)[C@H](O)[C@H]2O[C@H]2C[C@](C)(NCc3ccc(OCc4cn(CCCCC(=O)N[C@H](C(=O)N[C@@H](CCN)C(=O)N[C@H]5CCNC(=O)[C@H]([C@@H](C)O)NC(=O)[C@H](CCN)NC(=O)[C@H](CCN)NC(=O)[C@H](CC(C)C)NC(=O)[C@@H](CC(C)C)NC(=O)[C@H](CCN)NC5=O)[C@@H](C)O)nn4)c(OC)c3)[C@H](O)[C@H](C)O2)Oc2ccc(cc2Cl)[C@H]1O
MIC (broth microdilution; VISA LIM-2, tryptic soy broth; 20 to 24 h, 37 °C, 0.002% polysorbate 80): 4 µg/mL

CC[C@H](C)[C@@H]1NC(=O)[C@H](CO)NC(=O)C(C)(CCCCN)NC(=O)[C@@H]2CSSC[C@@H](C(=O)N[C@@H](Cc3ccc(O)cc3)C(N)=O)NC(=O)[C@H](CCCCN)NC(=O)[C@@H]3CSSC[C@H](NC(=O)[C@H](CCCNC(=N)N)NC(=O)C(C)(CC(C)C)NC(=O)[C@H](CC(=O)O)NC(=O)[C@H](CC(=O)O)NC(=O)[C@H](CCC(=O)O)NC(=O)[C@H](CC(N)=O)NC(=O)[C@H](Cc4c[nH]c5ccccc45)NC(=O)[C@@H]4CCCN4C(=O)CNC(=O)[C@H](CC(N)=O)NC(=O)[C@@H](NC(=O)CNC(=O)[C@H](Cc4ccccc4)NC(=O)CN)CSSC[C@H](NC(=O)[C@H](Cc4ccc(O)cc4)NC(=O)CNC(=O)CNC(=O)[C@H](CCCCN)NC(=O)[C@H](Cc4ccc(O)cc4)NC(=O)CNC(=O)[C@H](CCCCN)NC1=O)C(=O)N[C@@H](C)C(=O)N[C@@H](CCCCN)C(=O)NCC(=O)NCC(=O)N[C@@H](Cc1ccccc1)C(=O)N[C@@H](C(C)C)C(=O)N3)C(=O)N[C@@H](Cc1c[nH]cn1)C(=O)NC(C)(C)C(=O)N[C@@H](Cc1c[nH]cn1)C(=O)N2 (stereo partly shown)
MIC (broth microdilution; USA300 MRSA; 18 h): 1 µM

c1ccc(CN2CCOCCOCCN(CCCCCCCCCCCCCCN3CCOCCOCCN(CCCCCCCCCCCCCCN4CCOCCOCCN(Cc5ccccc5)CCOCCOCC4)CCOCCOCC3)CCOCCOCC2)cc1
MIC (1199B (NorA overexpressing)): ≤ 1 µM

N=C(N)NCCC[C@@H]1NC(=O)[C@H](CCCNC(=N)N)NC(=O)[C@H](CCCNC(=N)N)NC(=O)[C@@H](CCCNC(=N)N)NC(=O)[C@H](Cc2ccc3ccccc3c2)NC(=O)[C@H](Cc2ccc3ccccc3c2)NC(=O)[C@H](Cc2ccc3ccccc3c2)NC1=O
MIC (1193193, MRSA): 4 µg/mL

CC[C@H](C)[C@H](NC(=O)[C@@H](CCCNC(=N)N)NC(=O)[C@H](CCCNC(=N)N)NC(=O)[C@@H]1CCCN1C(=O)[C@@H]1CCCN1C(=O)[C@H](CCCNC(=N)N)NC(=O)[C@@H]1CCCN1C(=O)[C@H](CCCNC(=N)N)NC(=O)[C@@H]1CCCN1C(=O)[C@H](CC(C)C)NC(=O)[C@H](Cc1ccc(O)cc1)NC(=O)[C@@H]1CCCN1C(=O)[C@@H]1CCCN1C(=O)[C@H](CCCCN)NC(=O)[C@H](CC(=O)O)NC(=O)[C@@H](N)C(C)C)C(=O)N[C@@H](Cc1cc(I)c(O)c(I)c1)C(=O)N[C@@H](CC(N)=O)C(=O)N[C@H](CCCNC(=N)N)C(N)=O
MIC (broth microdilution; DSM 6247; 18 h, 37 °C, 25% MHB2): > 128 µg/mL

CN[C@H](CC(C)C)C(=O)N[C@H]1C(=O)N[C@@H](CC(N)=O)C(=O)N[C@H]2C(=O)N[C@H]3C(=O)N[C@H](C(=O)N[C@H](C(=O)O)c4cc(O)cc(O)c4-c4cc3ccc4O)[C@H](O)c3ccc(c(Cl)c3)Oc3cc2cc(c3O[C@@H]2O[C@H](CO)[C@@H](O)[C@H](O)[C@H]2O[C@H]2C[C@](C)(NCc3ccc(OCc4cn(CC(=O)N[C@H](C(=O)N[C@@H](CCN)C(=O)N[C@H]5CCNC(=O)[C@H]([C@@H](C)O)NC(=O)[C@H](CCN)NC(=O)[C@H](CCN)NC(=O)[C@H](CC(C)C)NC(=O)[C@@H](CC(C)C)NC(=O)[C@H](CCN)NC5=O)[C@@H](C)O)nn4)c(OC)c3)[C@H](O)[C@H](C)O2)Oc2ccc(cc2Cl)[C@H]1O
MIC (MSSA ATCC 29213): 0.095 µM

CC(C)C[C@H](NC(=O)[C@H](CCC(=O)O)NC(=O)[C@H](C)NC(=O)[C@H](CC(C)C)NC(=O)[C@H](CCC(=O)O)NC(=O)[C@H](C)NC(=O)[C@H](CCC(N)=O)NC(=O)[C@H](CC(C)C)NC(=O)[C@H](CCC(=O)O)NC(=O)[C@H](Cc1ccc(O)cc1)NC(=O)[C@H](CC(C)C)NC(=O)[C@H](CCC(N)=O)NC(=O)[C@H](C)NC(=O)[C@H](CCC(=O)O)NC(=O)[C@H](CC(C)C)NC(=O)[C@H](CCC(N)=O)NC(=O)[C@H](C)NC(=O)[C@H](CC(C)C)NC(=O)[C@H](CCC(=O)O)NC(=O)[C@H](C)NC(=O)[C@@H](N)CCC(N)=O)C(N)=O
MIC (broth microdilution; ATCC 6538; 24 h): > 250 µM

Excerpt of the above:
c1ccc(CN2CCOCCOCCN(CCCCCCCCCCCCCCN3CCOCCOCCN(CCCCCCCCCCCCCCN4CCOCCOCCN(Cc5ccccc5)CCOCCOCC4)CCOCCOCC3)CCOCCOCC2)cc1
MIC (1199B (NorA overexpressing)): ≤ 1 µM
